Published values collected from several papers.
Each numbered part is a random draw from the data of one study; scales do not carry over between parts. Positions count from the first letter of the parent shown.

Block 1 — method: protein binding microarray; form: double-stranded DNA, one strand shown; matrix: in vitro; concentration: not given; baseline: not given; direction: higher = stronger binding; measurement: E-score
Target: Histone acetyltransferase KAT6A, winged helix 1, GST fusion (KAT6A, Homo sapiens, UniProt Q92794, residues 1-85)
Notes: 8-mer, flanks averaged, mean of 2 arrays, mostly near background
Construct (chain): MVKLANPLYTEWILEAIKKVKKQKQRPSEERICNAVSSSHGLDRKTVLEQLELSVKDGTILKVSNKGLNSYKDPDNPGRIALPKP
CCAATACA: -0.0552
CCACTCAC: -0.0529
GACAGCTC: -0.0935
ATATTCCA: -0.151
AGATGGGC: 0.0177
GCATGTTA: 0.136
AAGCCCGG: 0.18
CATGTGTC: -0.0191

Block 2 — target: CCND1, cyclin fold, Cln2 fusion (human); method: yeast growth competition, sequencing; matrix: yeast; notes: strong parent motif; baseline: not given; direction: higher = stronger binding; measurement: normalised enrichment score
Parent: RBL1 docking peptide (human); GSAKRRLFGEDPP
GSAHRRLFGEDPP [K4H]: 0.291
GSAKRRFFGEDPP [L7F]: 0.11
GSAKRRLFCEDPP [G9C]: 3.5
GSAKRRLFGTDPP [E10T]: 0.883
GSAKRRLFGSDPP [E10S]: 1.27
GSMKRRLFGEDPP [A3M]: -0.333
GSAKRRLFGEDVP [P12V]: 1.48
GSARRRLFGEDPP [K4R]: 2.28

Block 3 — method: two-hybrid; notes: weak activation fusion; baseline: out of 4 tests; direction: higher = firmer interaction; measurement: positive tests
Partner: ARF17 (Arabidopsis thaliana, UniProt Q84WU6)
B1: IAA33 (Arabidopsis thaliana, UniProt Q9FKM7); chain MNSFEPQSQDSLQRRFHQDNSTTQQPRDTTTPFIPKPASKNHNNSNSSSGAAGRSFQGFGLNVEDDLVSSVVPPVTVVLEGRSICQRISLDKHGSYQSLASALRQMFVDGADSTDDLDLSNAIPGHLIAYEDMENDLLLAGDLTWKDFVRVAKRIRILPVKGNTRQVKRNE
B2: ARF13 (Arabidopsis thaliana, UniProt Q9FX25); chain MENNGEMNAQPELSVDITKTYMYEKLWNICAGPLCVLPKPGEKVYYFPQGHIELIENSTRDELDHIRPIFDLPSKLRCRVVAIDRKVDKNTDEVYAQISLMPDTTEVMTHNTTMDTRRPIVYFFSKILTASDVSLSGGLIIPKQYAIECFPPLDMSQPISTQNLVAKDLYGQEWSFKHVFRGTPQRHMFTSGGGWSVFATTKRLIVGDIFVLLRGENGELRFGIRRAKHQQGHIPSSVISANCMQHGVIASVVNAFKTKCMFNVVYKPSSSQFVISYDKFVDAMNNNYIVGSRFRMQFEGKDFSEKRYDGTIIGVNDMSPHWKDSEWRSLKVQWDELSPFLRPNQVSPWDIEHLIPSSDISQSSLKKKKHWLQLNEIGATLSNLWTCQEIGQRSMNSPISVPEFSYPNAIEDSKFLSGLLLNHSLLAIPNENYNSDQMIQPRKEDITTEATTSCLLFGVDLTKVSKSKDSICPIESCKKSLPQDKKFDQTQPLRSPKEVQSTEFNFTRSRIKVHMQGVAISRAVDLTAMHGYNQLIQKLEELFDLKDELRTRNQWEIVFTNNEGAEMLVGDDPWPEFCNMAKRIFICSKEEIKKMKLKNKFFQPESKALTSSDVPPNVTDN
B3: ARF12 500-593 (Arabidopsis thaliana, UniProt Q9XID4); chain TEIQNKQFSSSRTCTKVQMQGVTIGRAVDLSVLNGYDQLILELEKLFDIKGQLQTRNQWEIAFTDSDEDKMLVGDDPWPEFCNMVKKIFIQKRR
B4: ARF16 570-670 (Arabidopsis thaliana, UniProt Q93YR9); chain SPCSKKVHDASGLETGHCKVFMESDDVGRTLDLSVLGSYEELSRKLSDMFGIKKSEMLSSVLYRDASGAIKYAGNEPFSEFLKTARRLTILTEQGSESVVV
B5: IAA32 (Arabidopsis thaliana, UniProt Q8RYC6); chain MDPNTPADFFKGSSKFHTYYSQTKKGGGVIDLGLSLRTIQHETYLPPARMIGLDGYGELIDWSQPSYNSITQLKSEDTGHQRLAQGYYNNEGESRGKYAYVKVNLDGLVVGRKVCLVDQGAYATLALQLNDMFGMQTVSGLRLFQTESEFSLVYRDREGIWRNVGDVPWKEFVESVDRMRIARRNDALLPF
B6: ARF4 660-788 (Arabidopsis thaliana, UniProt Q9ZTX9); chain QSSSKRICTKVHKQGSQVGRAIDLSRLNGYDDLLMELERLFNMEGLLRDPEKGWRILYTDSENDMMVVGDDPWHDFCNVVWKIHLYTKEEVENANDDNKSCLEQAALMMEASKSSSVSQPDSSPTITRV
B7: ARF2 727-859 (Arabidopsis thaliana, UniProt Q94JM3); chain TKTNSSRSCTKVHKQGIALGRSVDLSKFQNYEELVAELDRLFEFNGELMAPKKDWLIVYTDEENDMMLVGDDPWQEFCCMVRKIFIYTKEEVRKMNPGTLSCRSEEEAVVGEGSDAKDAKSASNPSLSSAGNS
Construct (chain): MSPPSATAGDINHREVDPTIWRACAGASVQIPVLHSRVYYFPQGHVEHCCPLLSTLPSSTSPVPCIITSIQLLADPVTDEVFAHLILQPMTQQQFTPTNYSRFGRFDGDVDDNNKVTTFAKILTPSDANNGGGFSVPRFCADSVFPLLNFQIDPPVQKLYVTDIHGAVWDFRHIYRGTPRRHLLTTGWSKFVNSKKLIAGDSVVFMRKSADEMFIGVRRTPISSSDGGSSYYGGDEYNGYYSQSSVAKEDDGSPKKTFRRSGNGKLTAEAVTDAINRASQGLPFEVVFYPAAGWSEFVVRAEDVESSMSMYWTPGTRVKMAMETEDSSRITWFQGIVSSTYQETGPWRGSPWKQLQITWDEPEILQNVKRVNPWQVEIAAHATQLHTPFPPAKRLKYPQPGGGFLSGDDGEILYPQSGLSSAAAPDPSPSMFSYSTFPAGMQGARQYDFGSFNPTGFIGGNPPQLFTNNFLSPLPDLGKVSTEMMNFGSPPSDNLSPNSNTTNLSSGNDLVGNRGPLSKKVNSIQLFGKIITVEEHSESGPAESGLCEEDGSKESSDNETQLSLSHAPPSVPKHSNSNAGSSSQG
B1 (IAA33): 1
B2 (ARF13): 0
B3 (ARF12 500-593): 0
B4 (ARF16 570-670): 0
B5 (IAA32): 2
B6 (ARF4 660-788): 0
B7 (ARF2 727-859): 0

Mixed results
O=C(CCc1ccncc1)NNC(=O)N1Cc2ccccc2Oc2ccc(Cl)cc21  nuclear SOX9 intensity (mouse MPNST tumor cells; high-content immunofluorescence imaging, refers to: nuclear SOX9; 10 µM, 12 h, mean of 2 replicates; baseline: DMSO control, higher = more nuclear SOX9): 98.7 % of DMSO
